Published values of several laboratories.
A part holds a random share of what one study measured. Changes are numbered by the printed parent chain.

Series 1 — technique: universal PBM; form: double-stranded DNA, one strand shown; sample: in vitro; concentration: not given; reading: higher = stronger binding
Target: Sal-like protein 4, full length isoform B (SALL4, Homo sapiens, UniProt Q9UJQ4-2, residues 1-616)
Notes: 8-mer, flanks averaged, mean of replicates
`CATGGCTC` gave an E-score of -0.0811.
`AGTTCCAT` gave an E-score of 0.125.
With `CACTAACC` the E-score was -0.109.
`CAGATAGA` has an E-score of 0.0026.
For `GTAACCAC`, the E-score was -0.149.
For `ATTCGCTG`, the E-score was -0.0482.
The E-score of `CACGCCCG` is reported as -0.241.
`GCATACAC` has an E-score of 0.0925.
`AAATGGCC` has an E-score of -0.126.
For `CCCCAAGG`, the E-score was -0.254.
The E-score of `AACAGATG` is reported as 0.0736.
`AATAGACG` has an E-score of 0.167.
For `AATTGGAG`, the E-score was 0.095.
`TGACCACA` has an E-score of -0.00437.
`AAATCTCA` has an E-score of 0.113.
With `ATTTGTGG` the E-score was 0.154.
With `GAGACGTA` the E-score was 0.00647.
For `AATGTGTA`, the E-score was 0.283.
With `AGGCCGCA` the E-score was -0.221.
`CGGATAGC` gave an E-score of -0.146.
For `CGGTTGTA`, the E-score was -0.147.
For `CCAATCTA`, the E-score was -0.0217.
`AGTGATTG` has an E-score of 0.0869.
The E-score of `CGTTGCTA` is reported as 0.0368.
`ACCAGGCC` gave an E-score of -0.24.

Series 2 — technique: DHFR PCA, deep sequencing; sample: yeast; added: (+)-ABA 1.4 µM; baseline: wild-type fitted maximum; reading: higher = stronger binding
Target: ABI1, truncated, D143A, DHFR fusion (Arabidopsis thaliana)
Notes: methotrexate growth selection, single substitutions
Parent: PYL1, truncated, DHFR fusion (Arabidopsis thaliana); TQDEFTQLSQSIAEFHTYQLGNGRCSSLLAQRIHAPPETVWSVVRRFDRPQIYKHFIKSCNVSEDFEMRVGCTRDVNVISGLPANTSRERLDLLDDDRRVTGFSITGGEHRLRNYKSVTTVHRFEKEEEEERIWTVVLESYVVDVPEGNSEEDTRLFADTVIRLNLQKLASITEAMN; partner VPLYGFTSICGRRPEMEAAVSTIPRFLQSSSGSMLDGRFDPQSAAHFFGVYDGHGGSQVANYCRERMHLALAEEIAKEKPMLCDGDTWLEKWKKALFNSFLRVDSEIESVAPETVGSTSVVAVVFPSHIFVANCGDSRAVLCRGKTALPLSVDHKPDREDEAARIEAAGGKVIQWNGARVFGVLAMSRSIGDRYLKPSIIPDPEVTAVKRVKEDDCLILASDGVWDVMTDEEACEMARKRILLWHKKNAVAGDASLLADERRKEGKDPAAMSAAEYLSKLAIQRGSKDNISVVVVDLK
Under “relative binding score”, `S87M` is recorded as 6.4%.
Under “relative binding score”, `V143E` is recorded as -5.16%.
`H16E` — result for “relative binding score”: 9.34%.
`L20T` — result for “relative binding score”: 64.9%.
`V161D`: “relative binding score” 14.3%.
Under “relative binding score”, `K58C` is recorded as 2.62%.
`I133R`: “relative binding score” 39.4%.
`R45G`: “relative binding score” -13.8%.
Under “relative binding score”, `V62Q` is recorded as 20.5%.
`S80G`: “relative binding score” 4.5%.

Series 3 — target: CCNB1, cyclin fold, Cln2 fusion (human); technique: yeast growth competition, sequencing; sample: yeast; notes: weak parent motif; baseline: not given; reading: higher = stronger binding
Parent: E2F7 docking peptide (human); SSAQRRLEIPSGG
For `SSAQRRLEIPSGA [G13A]`, “normalised enrichment score” read 0.284.
`SSAQRRLEIPSAG [G12A]` — result for “normalised enrichment score”: -0.249.
For `SSAQRRLEIASGG [P10A]`, “normalised enrichment score” read 0.109.
For `SAAQRRLEIPSGG [S2A]`, “normalised enrichment score” read 0.0219.
For `SSAQKRLELPSGG [R5K I9L]`, “normalised enrichment score” read 0.0749.
`SSAQRRAEIPSGG [L7A]` — result for “normalised enrichment score”: -0.139.
For `SSAQRRLEFPSGG [I9F]`, “normalised enrichment score” read 0.8.
`ASAQRRLEIPSGG [S1A]`: “normalised enrichment score” 0.564.

Series 4 — technique: RNA Bind-n-Seq; form: RNA; sample: in vitro; concentration: not given; notes: RNA with constant flanks, ends assumed; baseline: input RNA pool; reading: higher = stronger binding
Target: RING finger protein unkempt homolog, zinc fingers 1-6, GST-SBP tag (UNK, Homo sapiens, UniProt Q9C0B0, residues 30-357)
Construct (chain): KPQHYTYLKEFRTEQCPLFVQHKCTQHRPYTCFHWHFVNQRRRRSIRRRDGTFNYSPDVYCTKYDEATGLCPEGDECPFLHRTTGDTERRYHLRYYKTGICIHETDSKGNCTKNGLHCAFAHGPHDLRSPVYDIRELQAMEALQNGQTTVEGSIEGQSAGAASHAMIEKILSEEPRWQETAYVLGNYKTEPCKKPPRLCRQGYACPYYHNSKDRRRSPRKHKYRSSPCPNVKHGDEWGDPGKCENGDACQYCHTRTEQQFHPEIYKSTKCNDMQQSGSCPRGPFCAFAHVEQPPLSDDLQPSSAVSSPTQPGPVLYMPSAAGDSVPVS
The bound/input enrichment of `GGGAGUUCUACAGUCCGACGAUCGGCAAAGGCAAAGGCGGCUCCGGAGAUUCGGCCGUGAAGCAGGUGCAGAUCGACGGCCUGGCCGUAUUAAAGAUAAUCAAACAUUAUCAAGAAGAAGGACAAGGCACUGAGGUUGUUCAGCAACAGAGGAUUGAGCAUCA` is reported as 0.172 ratio.
`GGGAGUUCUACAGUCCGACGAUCACGAUCGGGGCCUAUAUCAACACAACGCACUCACGCCUCACACACAUCAGUCCUCGGCACUACCGCGAGUUUAUCGAGUUCCUCAGCAAGGCCCGAGAGACCUUCCUAAUGGCACACGAUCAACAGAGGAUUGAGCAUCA` gave a bound/input enrichment of 0.161 ratio.
`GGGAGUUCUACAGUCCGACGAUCAAAACUUUGCAAGAAGAGAUUGAUGCCUUAGAGUCCAGAGUGGCGUCCAUCCAGCGGGUGUCCGCCGACCUGAAGGUGCAGCUAUACGCGAAAUUUGGCAGCAACAUAAACCUCGAGGCACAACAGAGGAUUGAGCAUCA` has a bound/input enrichment of 0.128 ratio.
The bound/input enrichment of `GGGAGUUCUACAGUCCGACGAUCCUGCAUCUUCACUACACAGUGAGCAUCACCAGUUUUAUCCCACGUUUUAACUUUCUAAGCACCGAUCUGCCAGUGGUUGUGGAGACAUUUGUCAAGUACCUGAUUUCCCUCUCAGGAGCUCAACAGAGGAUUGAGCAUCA` is reported as 0.385 ratio.
With `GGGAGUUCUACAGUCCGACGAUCUACUGUGACCUCCAGCAAGAACCCAAUGGUAUCACCGGAAUCCUGAAGUGGGUAAAACUGACCGACAACUUUGAAGGAGAAUACGACUACGUAACCAACGAGGGCACAGUGUUCACAUUCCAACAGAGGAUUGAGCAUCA` the bound/input enrichment was 0.0616 ratio.
`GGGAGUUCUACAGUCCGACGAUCUAACGUUACAUAUCAUAGUGAAUGGUUUCCCCAGUGUAUAUGAAUGUUUUAAGUGUUUCCAACCGCUUAUGAAAUUUAGGAGCUUUCUAAUACUCGUUUUAUAAAUUUAAUCAUUUGCUACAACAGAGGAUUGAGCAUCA` gave a bound/input enrichment of 1.56 ratio.
`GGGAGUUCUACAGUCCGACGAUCAAGUGUCUUUUCAUUCAGGGAAAACUGUUGUUUGCCGAGCCCAAGGAUGCGGGCUUUCCAUUCCGCCAGGAUAUCAAUAGCCAUUUGGCCAGCCUCUCAAUGGCUAGAAACACGAGCCCCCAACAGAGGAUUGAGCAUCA` gave a bound/input enrichment of 0.154 ratio.
With `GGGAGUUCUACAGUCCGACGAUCUUGCUUUACUGGAAAGAACCAGAAUAUGCCAAAUAUCUAAAGUACCCUCAGUGCUUACAUAUGUCCGAGCUGCUCCAGUAUGAGCACUUUCGCAAGGAGCUGGUGAAUGCGCAGUGUGCGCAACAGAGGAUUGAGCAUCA` the bound/input enrichment was 0.158 ratio.

Series 5 — technique: RNA Bind-n-Seq; form: RNA; sample: in vitro; concentration: 365 nM; baseline: no-protein control; reading: higher = stronger binding
Target: RNA binding protein fox-1 homolog 2, RRM domain, GST-SBP tag (RBFOX2, Homo sapiens, UniProt O43251-10, residues 100-194)
Notes: natural RNA segment, single round, ends assumed
Construct (chain): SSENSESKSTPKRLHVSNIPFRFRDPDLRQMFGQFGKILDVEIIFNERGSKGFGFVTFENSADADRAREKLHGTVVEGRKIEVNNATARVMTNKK
`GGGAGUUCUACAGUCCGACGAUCCUGUGCUCUGUGUCUGCAUGAAGGCUCAGCCUUUAGAGGCACUCCUUCUAGUUGCAUUAGUACUGUCUUUCUGUGGAGUUUGGUUUGAAGACUGGCUCAGCAAGUGGAGGUGGAAUUCUCGGGUGCCAA` — result for “RBNS enrichment (R)”: 2.61.
`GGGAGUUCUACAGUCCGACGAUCUGUCUUACAGGAGUUUGCAGAGAAACCUUCCUUGGAGGGAAAGAAAUAUCAGGGAUUUUUGUUGAAUAUUUCAAAUUCAGCUUUAAGUGUAAGACUCAGCAGUGUUCAUGUGGAAUUCUCGGGUGCCAA` — result for “RBNS enrichment (R)”: 0.441.
For `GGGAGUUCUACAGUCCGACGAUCUGUAAACUUGGAGGAGAGAUUUUUCUAUCAUGUAGAGUAGGUAUUUUUUAUAGAUUGAAGGUUGAUCAAUUUUUUUAAUACUUUCCAGAGAGAAAACUAUCUGUGUAUACUGGAAUUCUCGGGUGCCAA`, “RBNS enrichment (R)” read 0.752.
Under “RBNS enrichment (R)”, `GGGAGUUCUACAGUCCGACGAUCAUUGUUGUACAGGAUCUUCAGUUAUUCGAGGGGAAUGAGGCAGGUCAAGCCGAUGCUAGCCACUAGUUUGAUUUUUUUUCUGUUUUAUAGUUUGCGCUGCAUGGUACUUGUGGAAUUCUCGGGUGCCAA` is recorded as 1.84.
Under “RBNS enrichment (R)”, `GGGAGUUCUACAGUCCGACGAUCCAGGAGCCAGGAAACCACUUUAAGAUGUAAGCCAUUGUGUGUCUCUAGUUUCUUAAGCAGACCAAGUGAAUGGCUUACAGUCUGAAACAAAUAAAAGCCUUUGUAAAAGUUGGAAUUCUCGGGUGCCAA` is recorded as 0.486.
`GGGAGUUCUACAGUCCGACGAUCUCUGAAACUUGCACUGCCCAUCCAUGCAAAAAUAAGUAUCUUAAAUAAAAGCAGAGAGCAAAAACUGGGGAGCCAUGUACUAUGUCACCACAUCUGUUAACUGUUUCCUGUGGAAUUCUCGGGUGCCAA` — result for “RBNS enrichment (R)”: 0.272.
`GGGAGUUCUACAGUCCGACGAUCUUAGCUUUCUAACUAGUCAGAUUUCUGCCCAAAGUGCUUAGUCAAUAGUAAUUAAGAUAUAGCUUCAAAAAUGGCUUUGCUUUUGAUUUCUACUCAUAUUCGUAUGGCUCUGGAAUUCUCGGGUGCCAA`: “RBNS enrichment (R)” 0.387.
For `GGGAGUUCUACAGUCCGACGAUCUGUGCCGUAGUCUACACAUUUUUAGGGGAUAUUUCACCAAAAUACUUGACAUGGUAACAUCACUAUUAUAUACUAGAAGCAAGAAUUUUACACUUAUGCUCUAAGUGAUCUGGAAUUCUCGGGUGCCAA`, “RBNS enrichment (R)” read 0.23.
`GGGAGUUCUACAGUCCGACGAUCAUCAAGAAACUGAAUGGAGCUCCACACCUCUAGAUCUCAAUGAUUCGGUUGGCUUCUCAGUGGAACCCAACUGAAGUUGUCUAAUUGCCUCUUCUCAGAGUUCAGGAAAAUGGAAUUCUCGGGUGCCAA`: “RBNS enrichment (R)” 0.318.
For `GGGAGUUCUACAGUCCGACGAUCGGGGUCGUGGGGACGGGAACAUGUGCCCGACCGCUCCAUCCCCUCCUCCUCCUUAGGAUGCAUAACCUACCUUGUCUUUUUUUUUUUUAAUUUUCUUUCCAGGUAGAGUAUGGAAUUCUCGGGUGCCAA`, “RBNS enrichment (R)” read 0.659.
Under “RBNS enrichment (R)”, `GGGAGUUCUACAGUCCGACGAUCUGGGGCCUCUCAUUUUUUAUAAGCUCUUGAUAUACUUGAACAAUUUAAUAUGUACAGUUAGUUUGCUCUGGAUUAGUAUAUAAGUACAUUUUAUUAGGGGUUGUGACAACUGGAAUUCUCGGGUGCCAA` is recorded as 0.549.
Under “RBNS enrichment (R)”, `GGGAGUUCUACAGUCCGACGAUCAGGGUCAAAUACAGCUCUUUCUAGCAAAAUCAGGCAGCUCUGCCCCAUCGGUAGGGGCACCGAUUAGUCUACUAACAGCCAGAGGUCCAUCUAGCAGGGUGCCGGGAGGAUGGAAUUCUCGGGUGCCAA` is recorded as 0.15.

Some of these lines once more (series 3):
For `SSAQRRLEFPSGG [I9F]`, “normalised enrichment score” read 0.8.
For `SSAQRRLEIASGG [P10A]`, “normalised enrichment score” read 0.109.
`SSAQRRAEIPSGG [L7A]` — result for “normalised enrichment score”: -0.139.
`SSAQRRLEIPSAG [G12A]` — result for “normalised enrichment score”: -0.249.
For `SSAQRRLEIPSGA [G13A]`, “normalised enrichment score” read 0.284.
`ASAQRRLEIPSGG [S1A]`: “normalised enrichment score” 0.564.
For `SSAQKRLELPSGG [R5K I9L]`, “normalised enrichment score” read 0.0749.
For `SAAQRRLEIPSGG [S2A]`, “normalised enrichment score” read 0.0219.
